# Results from different studies.
# Numbered parts are unrelated; each lists some results of a single study.

# Series 1
# Target: Fragile X messenger ribonucleoprotein 1, C-terminal low-complexity region (Fmr1, Mus musculus, UniProt P35922)
# Technique: RNA Bind-n-Seq
# Molecule type: RNA
# Matrix: in vitro
# Concentration: 200 nM
# Notes: whole 134-nt RNA, ends assumed
# With: 150 mM KCl
# Reference: input library
# Direction: higher = stronger binding
Oligonucleotide,log2 enrichment
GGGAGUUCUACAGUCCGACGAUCUGCUGGUGAGCUGCUGCCUGGCAGGCCACGUCUGCGUGUGGGACGCGCAGACCGGGGAUUGCCUAACGCGCAUUCCGCGCCCAGGGUAGGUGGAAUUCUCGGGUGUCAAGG,-1.22
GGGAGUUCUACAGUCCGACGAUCGUCCUGUGCUACACAUCGUAUGUACCGAAUCGGGGUUUGGGGAAAAAAAGGGGUGGGGAAAGUAUUAUGUUACGCCGUUCGGAUCUGCACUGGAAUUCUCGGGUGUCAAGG,0.594
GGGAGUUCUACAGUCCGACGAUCUGGAUCAAGAGGAAGUAAAAAGAAUUACCAGUCACAGGCUGACAUUCCCAUUCGGUCUCCCUUUGGUAUUGUGAAAGCAUCCUGGCUACCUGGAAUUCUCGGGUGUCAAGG,-0.098
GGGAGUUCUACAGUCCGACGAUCUCCUCAAGUCCUGUGCUACACAUCGUAUGUACCGAAUCGGCCGGCCGGCCGGAAAGUAUUAUGUUACGCCGUUCGGAUCUGCACUUCCAGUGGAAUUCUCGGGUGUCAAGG,0.429
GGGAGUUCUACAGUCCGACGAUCAGUCCUGUGCUACACAUCGUAUGUACCGAAUCGGGGAGGGGAAAAAGGGGAAAGGGGAAAGUAUUAUGUUACGCCGUUCGGAUCUGCACUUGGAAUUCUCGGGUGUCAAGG,0.531
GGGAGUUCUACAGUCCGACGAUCAAGUCCUGUGCUACACAUCGUAUGUACCGAAUCGGAAAAGGGAAAAGGGAAAAGGGAAAGUAUUAUGUUACGCCGUUCGGAUCUGCACUUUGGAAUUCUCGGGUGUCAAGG,-0.529
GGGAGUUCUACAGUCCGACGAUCUCAAGUCCUGUGCUACACAUCGUAUGUACCGAAUCGGCCCGGGGCCCGGCCCGGAAAGUAUUAUGUUACGCCGUUCGGAUCUGCACUUCCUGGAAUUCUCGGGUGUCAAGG,-0.285
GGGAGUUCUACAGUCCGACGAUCAAGUCCUGUGCUACACAUCGUAUGUACCGAAUCGGGGUUUGGGGUUUGGGGUGGGGAAAGUAUUAUGUUACGCCGUUCGGAUCUGCACUUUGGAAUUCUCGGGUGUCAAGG,1.24
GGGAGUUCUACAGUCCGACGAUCUAGGUAUUUCUGGGAAAAGCCAGCUUCUGUUUGCACUGGUCUUCACAACUCGUUACCUGGAUCUUUUUACUUCAUUUAUUUCAUUGUAUAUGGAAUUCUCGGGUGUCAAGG,-1.86
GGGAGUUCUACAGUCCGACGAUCCCUGUGCUACACAUCGUAUGUACCGAAUCGGGAAAAAAGGGAAAAAAGGGGAAAAAAGGGGAAAGUAUUAUGUUACGCCGUUCGGAUCUGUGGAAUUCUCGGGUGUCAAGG,-0.707
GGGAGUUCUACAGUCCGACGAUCUCCUGUGCUACACAUCGUAUGUACCGAAUCAAAGUGUGUGUGUGUGUGUGUGUGUGAAAAAAGUAUUAUGUUACGCCGUUCGGAUCUGCAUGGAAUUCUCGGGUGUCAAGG,0.72
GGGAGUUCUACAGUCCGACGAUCCUGUGCUACACAUCGUAUGUACCGAAUCGGUUUUUUUGGUUUUUUUGGGGUUUUUUUGGGGAAAGUAUUAUGUUACGCCGUUCGGAUCUGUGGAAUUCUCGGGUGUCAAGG,-0.923
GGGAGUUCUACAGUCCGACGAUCGCAGGAAGUAAAAACAAAUGGAAAUGCUUCGGAUAGUGGCAGGGGUGGGGGUUGCUAAGGAAAGGGUGGGAUGGGAGUGGGUAAAAAGUUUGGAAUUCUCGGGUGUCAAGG,-0.118
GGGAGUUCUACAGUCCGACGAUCUCAAGUCCUGUGCUACACAUCGUAUGUACCGAAUCGGGGAAAGGAAAGGGAAAGGAAAGUAUUAUGUUACGCCGUUCGGAUCUGCACUUCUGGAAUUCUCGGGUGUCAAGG,-0.349

# Series 2
# Target: Prothrombin, mature alpha-thrombin (F2, Homo sapiens, UniProt P00734)
# Technique: aptamer microarray, sandwich
# Molecule type: DNA with 2'F-ANA
# Matrix: in vitro
# Concentration: 200 nM
# Notes: whole 15-mer aptamer, many near background
# With: Cy3 exosite-II aptamer, 400 nM
# Direction: higher = stronger binding
# Oligonucleotide: GGTTGGTGTGGTTGG
Modification,mean fluorescence intensity
2'F-ANA at 1 11 12 15,341 a.u.
2'F-ANA at 1 2 4 11 14,49.3 a.u.
2'F-ANA at 1 2 3 6 7 10 13 15,63.2 a.u.
2'F-ANA at 6 8 9 10 11 13 14 15,98.6 a.u.
2'F-ANA at 4 5 9 10 11 12 13,51.5 a.u.
2'F-ANA at 2 4 8 10 14,63.5 a.u.
2'F-ANA at 1 2 4 6 8 9 12 13,164 a.u.
2'F-ANA at 1 2 7 8 10 11 13 15,50.9 a.u.
2'F-ANA at 6 10 13 15,136 a.u.
2'F-ANA at 2 3 7 9 12,1030 a.u.
2'F-ANA at 2 4 6 8 10 12 13,107 a.u.
2'F-ANA at 2 5 7 8 9 11 14,57.6 a.u.
2'F-ANA at 2 3 4 9 10 11 12 14 15,182 a.u.
2'F-ANA at 1 3 4 5 7 8 9 10 15,48.2 a.u.
2'F-ANA at 1 6 7 10 12 15,68.4 a.u.
2'F-ANA at 3 4 8 9 10 13,222 a.u.
2'F-ANA at 2 3 5 6 7 8 9 13 14 15,59.8 a.u.
2'F-ANA at 2 4 7 8 9 10 13,78.2 a.u.

# Series 3
# Target: RNA binding protein fox-1 homolog 2, RRM domain, GST-SBP tag (RBFOX2, Homo sapiens, UniProt O43251-10, residues 100-194)
# Technique: RNA Bind-n-Seq
# Molecule type: RNA
# Matrix: in vitro
# Concentration: 365 nM
# Notes: natural RNA segment, single round, ends assumed
# Reference: no-protein control
# Direction: higher = stronger binding
# Residues (chain): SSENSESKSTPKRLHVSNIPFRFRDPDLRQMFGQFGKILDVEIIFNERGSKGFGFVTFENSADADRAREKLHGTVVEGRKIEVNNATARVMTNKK
Oligonucleotide,RBNS enrichment (R)
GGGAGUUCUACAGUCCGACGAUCCAGCUCUGUUGACUUCUCUUGGAACACACCUGAACGCUUUCCUCAUUUCUAACCUGUGCCACCUCUUGUUUCGUUCAUGCUGAGCCUGUAGUUUCAGUCAUGGACUUUUGUGGAAUUCUCGGGUGCCAA,0.705
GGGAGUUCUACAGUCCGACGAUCUUUUCAAAGUAGAGCGUGAGCAUGUAUUUUUAGUGGGAGAGCUCUGAUAGUUGUUGGGAAUAUAUAAUUUACUGGACCUCAGCCCAAAUCAAGAUGCUUAAAAUUGUACUUGGAAUUCUCGGGUGCCAA,1.04
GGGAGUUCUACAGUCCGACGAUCAGGAAUAGGCAAGAAGCCAGUCUCCCCAGGUUGGAAGAGGAUCAUGGGCCUGGCCUAGCUCCUCCGCCCUGGCCUAGCCCAGCAAACCCUGGGCGAGUCACAGAGUUUGCUGGAAUUCUCGGGUGCCAA,0.247
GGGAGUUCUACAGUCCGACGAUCUUGAAUUUGAGACCUAUUGUAAGCAUGAUCCCUACCUACAACCCUAUUUUUACAUACCCAAUUCCAGUAACUCUCAAAUCCAGUAUUUUACUCAAACUCUGUUGGGGCAUUGGAAUUCUCGGGUGCCAA,10.5
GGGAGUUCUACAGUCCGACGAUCAAUUGAGACUGCAAGUGGGGGAGGUGGAGGGUCUGGGGGAGUCUGCCCCCAAUCCAGGAGUACCCCCCUUGCCACCAAGUCUCCUUUAUUGCCUGCCUCUGCUGUGAAUUUGGAAUUCUCGGGUGCCAA,1.16
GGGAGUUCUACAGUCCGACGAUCGGUUUCUAAUAUGUAUGACCAAUGUAGCCAUUGCUUUGAAAUGUAAAUAUAAACACGUCCUAUCCGACUAUUGGCUUUGGGGUAUUUGUCGGGCUGGAGUCCUCACACACUGGAAUUCUCGGGUGCCAA,0.535
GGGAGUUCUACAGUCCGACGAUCACCCAAGUCUUAGUUGCUACAAGAAAAUCCCCUGGAAGUACUGGGGGCCAGGUUCCCCAGACAGCAGGAAUUGCCCCUGUUCAGAGCAGCCGGAGUUUGCUGGACCACAAUGGAAUUCUCGGGUGCCAA,0.379
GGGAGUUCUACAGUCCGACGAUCGACGGUCUUGCUAAGUAUAUGACUGGGAGAGUUUGGUCAUUUUUGUGUACCCUAUGGUGGGAAUGUGGGGUUGCCUUUCAAAAGCCUUCAGGAUGGCAACAGAUUGGAUGUGGAAUUCUCGGGUGCCAA,1.2
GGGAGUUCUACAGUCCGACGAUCUGUGGCCUUUUUUUCAUUUAGCCAUUGCACAGUCAGCUGCAGAAGUCCUGCUGACCACCUAGUCAUGGACAAAGGCCCAGGACCAGUGACACCCUGCGUCCCUGUGUGCAUGGAAUUCUCGGGUGCCAA,0.445
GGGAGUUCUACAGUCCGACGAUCUCAGAAAGCAAUUUUGUAAUUUCAGAGAGUGUUUUGAGCCAUGGCCACGUUGUCAUUGUGAGUCUAUAGCUUGACUCCUUGGAGAACAAUAUUCAUUUGGUUGUGGAGACUGGAAUUCUCGGGUGCCAA,0.322
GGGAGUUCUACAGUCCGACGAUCGUGAGCCUCUUGCUAAGUGUCACACACACUCUUCCCAAAGACGUGAUGAGUUAAAGUUGUAUUCUGAAAUCAUGAAGCCAGAGCCUGUGCCAGACCUUCUGCUACCUCUCUGGAAUUCUCGGGUGCCAA,0.3
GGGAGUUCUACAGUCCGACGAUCGCUGUAUCAUGAGAUUUUGAGGGGACCGAGCCCUGUUACAUGGAUGUGAACAGUGAGGAUCAGAGGUUUUAUCAGAACACAUUCUUUUUUUCUACCAACUCUCCAGAGCGUGGAAUUCUCGGGUGCCAA,0.955

# Series 4
# Target: Histone acetyltransferase KAT6A, winged helix 2, GST fusion (KAT6A, Homo sapiens, UniProt Q92794, residues 85-181)
# Technique: protein binding microarray
# Molecule type: double-stranded DNA, one strand shown
# Matrix: in vitro
# Concentration: not given
# Notes: 8-mer, flanks averaged, mean of 2 arrays, mostly near background
# Reference: not given
# Direction: higher = stronger binding
# Residues (chain): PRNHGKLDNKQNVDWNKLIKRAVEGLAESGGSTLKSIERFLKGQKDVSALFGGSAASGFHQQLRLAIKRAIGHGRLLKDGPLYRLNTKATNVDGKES
Oligonucleotide,E-score
GGGTGACA,0.0989
CTGCATCC,0.107
AATAATTA,0.218
CCAGTCAG,-0.139
GTGACCCA,0.0807
AATGGAGA,-0.0633
GGTAAAAC,-0.00378
ATACAACG,-0.106
GGGTCCAA,-0.0581
CCTTAGAG,-0.0432
TGAGCACA,-0.0271
GTTATCTA,-0.176
ACGTTAGG,-0.255
AGTTTATA,0.0126
GACTGCAC,-0.0985
GGTCTCGA,0.0645
CAACACAC,-0.0738
AAGATGGA,-0.00816
GATTCGGA,0.156
CCACTTAC,-0.113
CAATAATA,0.0407
ATCGCTAG,0.0716
ACACCTTC,0.091
GCATACGC,0.0863
CCGGTAAG,0.11

# Some of these lines once more (series 2):
Modification,mean fluorescence intensity
2'F-ANA at 1 2 4 11 14,49.3 a.u.
2'F-ANA at 2 4 8 10 14,63.5 a.u.
2'F-ANA at 4 5 9 10 11 12 13,51.5 a.u.
2'F-ANA at 2 5 7 8 9 11 14,57.6 a.u.
2'F-ANA at 1 2 7 8 10 11 13 15,50.9 a.u.
2'F-ANA at 1 2 3 6 7 10 13 15,63.2 a.u.
2'F-ANA at 2 4 7 8 9 10 13,78.2 a.u.
2'F-ANA at 1 11 12 15,341 a.u.
2'F-ANA at 6 10 13 15,136 a.u.
2'F-ANA at 1 3 4 5 7 8 9 10 15,48.2 a.u.
